# Measurements of several laboratories.
# Lines come from different studies, so protocols differ. Numbers after ± are the reported error.
SMILES,assay,test system,setting,half-life
Cc1cc(C)c(CNC(=O)c2cc(Cl)c3c(c2C)O[C@@](C)([C@H]2CC[C@H](N(C)C)CC2)O3)c(=O)[nH]1,mean,"healthy male humans, plasma","oral, 25 mg, day 12, together with: fluconazole",19.2 h
[H]/N=C(/N)c1ccc(NCc2nc3cc(C(=O)N(CCC(=O)O)c4ccccn4)ccc3n2C)cc1,measured: total dabigatran,"human, plasma","oral, 75 mg dabigatran etexilate, given alone",9.6 ± 1.66 h
CO[C@H]1C[C@@H]2CC[C@@H](C)[C@@](O)(O2)C(=O)C(=O)N2CCCC[C@H]2C(=O)O[C@H]([C@H](C)C[C@@H]2CC[C@@H](OC(=O)NCCOCCOCCOCCOCCOCCOCCOCCOCCC(=O)N3CCc4cc(Cn5nc(-c6ccc7oc(N)nc7c6)c6c(N)ncnc65)ccc4C3)[C@H](OC)C2)C[C@@H](O)[C@H](C)/C=C(\C)[C@@H](O)[C@@H](OC)C(=O)[C@H](C)C[C@H](C)/C=C/C=C/C=C/1C,,"human, plasma","intravenous, 12 mg, cycle 1 day 1, arithmetic mean",5.4 h
O=C(O)c1cc(/N=N/c2ccc(S(=O)(=O)Nc3ccccn3)cc2)ccc1O,LC-MS,"human, plasma","oral, 1000 mg, day 1",11.1 h
C#Cc1cccc(Nc2ncnc3cc(OCCOC)c(OCCOC)cc23)c1,,"human, plasma","oral, 100 mg",15 to 19 h
CCCn1cc(C)c2c(=O)[nH]c(-c3cc(S(=O)(=O)N4CCN(CC)CC4)ccc3OCC)nc21,LC-MS/MS,"human, plasma","100 mg, together with: alcoholic beverage 0.5 g/kg",4.62 ± 1.1 h
NC(=O)c1[nH]cnc1N,,"human patients, plasma","IV infusion over 1 h, 1000 mg/m^2 DTIC, cycle 1 day 1, DTIC alone",2.89 h
COc1cc(C(=O)NC2CCN(C)CC2)c(F)cc1Nc1ncc(C(F)(F)F)c(Oc2cccc3c2C(=O)N(C)C3)n1,,"human patients, plasma","oral, 100 mg single dose, geometric mean",22.2 h
Cc1cc(C)c(CNC(=O)c2cc(Cl)c3c(c2C)O[C@@](C)([C@H]2CC[C@H](N(C)C)CC2)O3)c(=O)[nH]1,,"human male, plasma","oral, 200 mg, single dose, [14C]-labelled",12.7 h
N#Cc1cc(NC(=O)[C@H]2c3ccccc3C(=O)N(CC(F)(F)F)[C@@H]2c2cccnc2)ccc1F,,"human, plasma","oral, 900 mg, median",19.5 h
Cn1nnc2c(C(N)=O)ncn2c1=O,,"human patients, plasma","oral, together with: talazoparib",1.9 ± 0.7 h
CCN1CCN(Cc2ccc(Nc3ncc(F)c(-c4cc(F)c5nc(C)n(C(C)C)c5c4)n3)nc2)CC1,,"healthy human, fasted","oral, 150 mg, 3 x 50 mg tablets",25.6 h
CN[C@@H](C)C(=O)N[C@H]1CN(S(=O)(=O)c2cccc(S(=O)(=O)N3CC[C@H]4CC[C@@H](C(=O)NC(c5ccccc5)c5ccccc5)N4C(=O)[C@@H](NC(=O)[C@H](C)NC)C3)c2)CC[C@H]2CC[C@@H](C(=O)NC(c3ccccc3)c3ccccc3)N2C1=O,"LC-MS/MS, noncompartmental","human, plasma","45 mg, cycle 1 day 1",3.38 ± 1.84 h
C#C[C@]1(COP(=O)(O)O)O[C@@H](n2cnc3c(N)nc(F)nc32)C[C@@H]1O,measured: islatravir triphosphate,"human, PBMC","oral, 30 mg single dose",100 h
COc1ncc(-c2nc3c(n2C(C)C)[C@H](c2ccc(Cl)cc2)N(c2cc(Cl)cn(C)c2=O)C3=O)c(OC)n1,,"human, plasma","oral, 150 mg, C1D1, high-dose, median",13.1 h
CCCCCCCOc1ccc(CCC(N)(CO)CO)cc1C(F)(F)F.Cl,,"healthy human males, plasma","oral, 0.125 mg, day 21",415 h
C=CC(=O)NC1CCN(c2ncc3ncnc(Nc4ccc(Oc5ccc6c(c5)ncn6C)c(C)c4)c3n2)CC1,,"human, male, plasma","oral, 240 mg single dose, fasted, geometric mean",30.9 h
CCN(CC)CCNC(=O)c1c(C)[nH]c(/C=C2\C(=O)Nc3ccc(F)cc32)c1C,,"human patients, plasma","oral, cycle 1 day 1",55.9 h
CC(C)(Sc1ccncc1-c1ccc(C#N)c2ccccc12)C(=O)O,,"human, plasma","oral, 2.5 mg once daily, together with: febuxostat 10 mg",14.8 h
COc1cc(C(=O)NC2CCN(C)CC2)c(F)cc1Nc1ncc(C(F)(F)F)c(Oc2cccc3c2C(=O)N(C)C3)n1,,"human, Taiwanese, plasma","oral, 200 mg single dose, geometric mean",20.4 h
CC(=O)O[C@H]1C(=O)[C@@]2(C)[C@H]([C@H](OC(=O)c3ccccc3)[C@]3(O)C[C@H](OC(=O)[C@H](O)[C@@H](NC(=O)c4ccccc4)c4ccccc4)C(C)=C1C3(C)C)[C@]1(OC(C)=O)CO[C@@H]1C[C@@H]2O,,"human, plasma","intravenous infusion, 60 mg/m^2, cycle 1 day 15, with oral co-drug daily",9.54 h
CN(C)N=Nc1[nH]cnc1C(N)=O,,"human patients, plasma","intravenous, 1000 mg/m^2 over 1 h, cycle 2 day 1, co-administered with another drug",2.62 h
NS(=O)(=O)OC[C@@H]1C[C@@H](n2ccc3c(N[C@H]4CCc5ccccc54)ncnc32)C[C@@H]1O,"LC-MS/MS, non-compartmental","human, plasma","intravenous, all dose levels, cycle 1 day 8, median, together with: irinotecan/temozolomide",4.9 h
Cc1nc(-c2ccc(OCC(C)C)c(C#N)c2)sc1C(=O)O,,human,"oral, 20 mg once daily, together with: verinurad 0 mg",7.12 h
Cc1ccc(C)c(OCCCC(C)(C)C(=O)O)c1,,"human, plasma","oral, 600 mg, before lopinavir/ritonavir, geometric mean",4.4 h
C#C[C@]1(CO)O[C@@H](n2cnc3c(N)nc(F)nc32)C[C@@H]1O,,"human, plasma","oral, 15 mg, single dose, geometric mean",51.2 h
CCOc1c([C@H](C)n2nc(C)c3c(N)ncnc32)cc(Cl)c(F)c1[C@@H]1CNC(=O)C1,,"human patients, Hodgkin lymphoma, plasma","oral, 20 mg, day 15, monotherapy",16.8 h
CC(C)[C@H](N)C(=O)NCCCS(=O)(=O)O,,"human, plasma","oral, 256.5 mg once daily, day 1, fasted, capsule",0.934 h
O=C(O)CCC(=O)O.[2H]C([2H])([2H])Oc1cc(C)c2[nH]ccc2c1CN1CC[C@@H](C2CC2)C[C@H]1c1ccc(C(=O)O)cc1,,"human, plasma","300 mg once daily, day 10, multiple ascending dose, mean",33.2 h
CC(C)NC(=O)COc1cccc(-c2nc(Nc3ccc4[nH]ncc4c3)c3ccccc3n2)c1,,"human, male, fed, plasma","oral, 200 mg once daily, day 8, geometric mean, together with: raltegravir",~8 h
O=C(O)C[C@H](O)C[C@H](O)/C=C/c1c(C2CC2)nc2ccccc2c1-c1ccc(F)cc1,,"OATP1B1/1B3 humanized mouse, plasma","oral, 5 mg/kg, together with: rifampin 20 mg/kg oral",2.8 h
N#CCNC(=O)c1ccc(-c2ccnc(Nc3ccc(N4CCOCC4=O)cc3)n2)cc1,,"healthy human volunteers, plasma","200 mg momelotinib, day 1, fasted, momelotinib alone",7.65 h
Cc1noc(C)c1-c1cc(C(O)(c2ccccn2)c2ccccn2)c2nc(C3CC3)[nH]c2c1,,"human patients, plasma","oral, 3 mg, cycle 1 day 8, monotherapy",16.8 h
CC#CC(=O)N1CC[C@@H](n2c(=O)n(-c3ccc(Oc4ccccc4)cc3)c3c(N)ncnc32)C1,,"human, fasting, plasma","oral, 320 mg once daily, cycle 1 day 28",~4.7 h
COC(=O)N[C@@H](C)CNc1nccc(-c2cn(C(C)C)nc2-c2cc(Cl)cc(NS(C)(=O)=O)c2F)n1,,"human patients, plasma","oral, 450 mg twice daily, day 14, steady state, geometric mean, together with: binimetinib 45 mg once daily",4.37 h
O=C(COc1ccc(Cl)cc1)NC12CC(c3nnc([C@H]4C[C@@H](OC(F)(F)F)C4)o3)(C1)C2,,"healthy human volunteers fasted, plasma","oral, 400 mg single dose, arithmetic mean",37.4 h
CC(=O)c1cc(C(=O)N[C@@H](C)Cn2ccc(-c3ccc(C#N)c(Cl)c3)n2)[nH]n1,,"human, fasted","oral, 300 mg 14C-darolutamide solution, geometric mean",10.7 h
CC1=C(c2cccc(O)c2)[C@H](c2ccc(OCCN3CC(CF)C3)cc2)Oc2ccc(O)cc21,,"human, plasma","oral, 1400 mg single dose",18 h
COC(=O)C(Cc1cccc(OC)c1I)NC(=O)CNCc1ccccc1 (centres unmarked),,human,1 µM,> 2 h
Cc1ccc([C@@H]2O[C@H](CO)[C@@H](O)[C@H](O)[C@H]2O)cc1Cc1ccc(-c2ccc(F)cc2)s1,,"human, maintenance hemodialysis patients","oral, 300 mg once daily, steady state, median",10.4 h
CC(C)n1nc(-c2ccc3oc(N)nc3c2)c2c(N)ncnc21,,"human patients, plasma","oral, 3 mg once daily, cycle 1 day 15, dose expansion",8.4 h
N#Cc1cccc(-c2ccc3ncc(-c4cc(F)cc(F)c4)c(N4CCC(N)CC4)c3c2)c1O,,"human male, plasma","oral, 20 mg, single dose, geometric mean",26 h
CO[C@@H]1[C@H](OC(=O)N2CC(CCN3CCOCC3)C2)CC[C@]2(CO2)[C@H]1[C@@]1(C)O[C@@H]1CC=C(C)C,,"humans, plasma","subcutaneous, 0.6 mg twice weekly, first dose",0.9 ± 0.57 h
C=CC(=O)N(C)CCOc1c(N)ncnc1-c1cc(F)cc(NC(=O)c2ccc(C3CC3)cc2F)c1C,,"human, fasted, whole blood","oral, 60 mg single dose, food effect study, median",2.72 h
CCN(CC)Cc1cc(Nc2ccnc3cc(Cl)ccc23)ccc1O,,"human, both sexes, plasma","oral, dose not given, non-fixed combination",2.37 h
CC1(COc2ccc3c(c2)ncn3-c2ccc3cccc(N4CCC(N)CC4)c3n2)COC1,,"human patients, recurrent/progressive HGG or DIPG, serum","oral, 130 mg/m^2, day 1, median",9.1 h
C[C@H](Oc1ccc(Br)cc1-c1ccon1)C(=O)O,"LC-MS/MS, non-compartmental","human, plasma","200 mg once daily, day 1, multiple ascending dose, mean",5.34 h
COc1ccc([C@@H](O)c2cc(-c3ncnc4cc(N5CCOCC5)ccc34)c(F)cc2Cl)nn1,,"human, plasma","oral, 300 mg twice daily, single dose, geometric mean",5.24 h
C[C@@H](Oc1ccc(S(C)(=O)=O)cc1C(=O)N1C[C@@H]2C[C@]2(c2cc(C(F)(F)F)on2)C1)C(F)(F)F,,"elderly humans, plasma","oral, 50 mg once daily, single dose, geometric mean",43.8 h
CCN1CCN(Cc2ccc(Nc3ncc(F)c(-c4cc(F)c5nc6n(c5c4)[C@H](C)CCC6)n3)nc2)CC1,,"human, plasma","100 mg single dose, mean",42.4 h

# A few entries again:
SMILES,assay,test system,setting,half-life
C=CC(=O)N(C)CCOc1c(N)ncnc1-c1cc(F)cc(NC(=O)c2ccc(C3CC3)cc2F)c1C,,"human, fasted, whole blood","oral, 60 mg single dose, food effect study, median",2.72 h
CCN(CC)Cc1cc(Nc2ccnc3cc(Cl)ccc23)ccc1O,,"human, both sexes, plasma","oral, dose not given, non-fixed combination",2.37 h
CC1(COc2ccc3c(c2)ncn3-c2ccc3cccc(N4CCC(N)CC4)c3n2)COC1,,"human patients, recurrent/progressive HGG or DIPG, serum","oral, 130 mg/m^2, day 1, median",9.1 h
C[C@H](Oc1ccc(Br)cc1-c1ccon1)C(=O)O,"LC-MS/MS, non-compartmental","human, plasma","200 mg once daily, day 1, multiple ascending dose, mean",5.34 h
COc1ccc([C@@H](O)c2cc(-c3ncnc4cc(N5CCOCC5)ccc34)c(F)cc2Cl)nn1,,"human, plasma","oral, 300 mg twice daily, single dose, geometric mean",5.24 h
C[C@@H](Oc1ccc(S(C)(=O)=O)cc1C(=O)N1C[C@@H]2C[C@]2(c2cc(C(F)(F)F)on2)C1)C(F)(F)F,,"elderly humans, plasma","oral, 50 mg once daily, single dose, geometric mean",43.8 h
CCN1CCN(Cc2ccc(Nc3ncc(F)c(-c4cc(F)c5nc6n(c5c4)[C@H](C)CCC6)n3)nc2)CC1,,"human, plasma","100 mg single dose, mean",42.4 h
